Published values pooled from the literature.
Lines come from different studies, so protocols differ. Numbers after ± are the reported error.
Sequence of UniProt P02769 (whole entry, looked up): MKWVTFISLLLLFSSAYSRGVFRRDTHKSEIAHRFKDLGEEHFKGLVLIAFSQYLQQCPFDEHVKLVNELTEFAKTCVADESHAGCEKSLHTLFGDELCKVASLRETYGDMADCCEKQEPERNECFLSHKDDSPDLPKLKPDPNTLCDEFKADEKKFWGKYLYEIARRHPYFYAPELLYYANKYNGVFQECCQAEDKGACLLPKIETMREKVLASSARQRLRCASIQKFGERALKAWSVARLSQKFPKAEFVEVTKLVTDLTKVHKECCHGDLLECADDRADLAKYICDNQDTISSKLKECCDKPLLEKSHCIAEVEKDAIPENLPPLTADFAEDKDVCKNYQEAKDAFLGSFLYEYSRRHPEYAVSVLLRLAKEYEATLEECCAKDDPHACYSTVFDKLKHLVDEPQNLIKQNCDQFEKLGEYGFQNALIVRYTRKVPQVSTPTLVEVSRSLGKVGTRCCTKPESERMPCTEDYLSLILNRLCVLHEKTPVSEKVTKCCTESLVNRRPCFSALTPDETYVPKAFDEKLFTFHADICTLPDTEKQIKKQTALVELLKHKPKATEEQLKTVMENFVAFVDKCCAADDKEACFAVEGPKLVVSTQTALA
Sequence of UniProt P53341 (whole entry, looked up): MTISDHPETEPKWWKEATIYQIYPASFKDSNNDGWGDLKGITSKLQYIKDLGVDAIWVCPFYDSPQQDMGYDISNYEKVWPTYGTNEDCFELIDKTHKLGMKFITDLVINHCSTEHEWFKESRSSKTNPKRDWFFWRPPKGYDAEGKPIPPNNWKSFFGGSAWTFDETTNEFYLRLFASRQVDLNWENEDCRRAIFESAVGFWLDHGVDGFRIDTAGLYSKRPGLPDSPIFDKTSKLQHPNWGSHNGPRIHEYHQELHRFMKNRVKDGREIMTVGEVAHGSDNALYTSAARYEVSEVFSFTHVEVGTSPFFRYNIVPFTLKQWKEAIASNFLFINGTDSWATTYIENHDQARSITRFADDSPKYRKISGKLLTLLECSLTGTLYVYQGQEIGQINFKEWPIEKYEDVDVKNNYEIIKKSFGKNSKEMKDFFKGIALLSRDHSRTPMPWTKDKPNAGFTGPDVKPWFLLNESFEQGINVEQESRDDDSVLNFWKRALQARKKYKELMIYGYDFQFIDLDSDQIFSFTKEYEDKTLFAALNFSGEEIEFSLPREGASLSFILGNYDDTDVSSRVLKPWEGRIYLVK
Sequence of UniProt Q96C86 (whole entry, looked up): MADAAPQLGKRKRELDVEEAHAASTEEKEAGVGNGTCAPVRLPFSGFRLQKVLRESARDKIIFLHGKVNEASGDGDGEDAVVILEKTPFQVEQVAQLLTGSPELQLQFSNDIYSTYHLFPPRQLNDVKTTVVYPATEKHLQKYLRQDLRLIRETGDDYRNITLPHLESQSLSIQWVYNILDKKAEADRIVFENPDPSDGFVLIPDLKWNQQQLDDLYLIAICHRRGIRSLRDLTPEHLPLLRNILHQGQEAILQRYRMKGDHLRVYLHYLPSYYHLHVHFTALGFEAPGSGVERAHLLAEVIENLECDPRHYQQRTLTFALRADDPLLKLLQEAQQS
Sequence of UniProt O95477 (whole entry, looked up): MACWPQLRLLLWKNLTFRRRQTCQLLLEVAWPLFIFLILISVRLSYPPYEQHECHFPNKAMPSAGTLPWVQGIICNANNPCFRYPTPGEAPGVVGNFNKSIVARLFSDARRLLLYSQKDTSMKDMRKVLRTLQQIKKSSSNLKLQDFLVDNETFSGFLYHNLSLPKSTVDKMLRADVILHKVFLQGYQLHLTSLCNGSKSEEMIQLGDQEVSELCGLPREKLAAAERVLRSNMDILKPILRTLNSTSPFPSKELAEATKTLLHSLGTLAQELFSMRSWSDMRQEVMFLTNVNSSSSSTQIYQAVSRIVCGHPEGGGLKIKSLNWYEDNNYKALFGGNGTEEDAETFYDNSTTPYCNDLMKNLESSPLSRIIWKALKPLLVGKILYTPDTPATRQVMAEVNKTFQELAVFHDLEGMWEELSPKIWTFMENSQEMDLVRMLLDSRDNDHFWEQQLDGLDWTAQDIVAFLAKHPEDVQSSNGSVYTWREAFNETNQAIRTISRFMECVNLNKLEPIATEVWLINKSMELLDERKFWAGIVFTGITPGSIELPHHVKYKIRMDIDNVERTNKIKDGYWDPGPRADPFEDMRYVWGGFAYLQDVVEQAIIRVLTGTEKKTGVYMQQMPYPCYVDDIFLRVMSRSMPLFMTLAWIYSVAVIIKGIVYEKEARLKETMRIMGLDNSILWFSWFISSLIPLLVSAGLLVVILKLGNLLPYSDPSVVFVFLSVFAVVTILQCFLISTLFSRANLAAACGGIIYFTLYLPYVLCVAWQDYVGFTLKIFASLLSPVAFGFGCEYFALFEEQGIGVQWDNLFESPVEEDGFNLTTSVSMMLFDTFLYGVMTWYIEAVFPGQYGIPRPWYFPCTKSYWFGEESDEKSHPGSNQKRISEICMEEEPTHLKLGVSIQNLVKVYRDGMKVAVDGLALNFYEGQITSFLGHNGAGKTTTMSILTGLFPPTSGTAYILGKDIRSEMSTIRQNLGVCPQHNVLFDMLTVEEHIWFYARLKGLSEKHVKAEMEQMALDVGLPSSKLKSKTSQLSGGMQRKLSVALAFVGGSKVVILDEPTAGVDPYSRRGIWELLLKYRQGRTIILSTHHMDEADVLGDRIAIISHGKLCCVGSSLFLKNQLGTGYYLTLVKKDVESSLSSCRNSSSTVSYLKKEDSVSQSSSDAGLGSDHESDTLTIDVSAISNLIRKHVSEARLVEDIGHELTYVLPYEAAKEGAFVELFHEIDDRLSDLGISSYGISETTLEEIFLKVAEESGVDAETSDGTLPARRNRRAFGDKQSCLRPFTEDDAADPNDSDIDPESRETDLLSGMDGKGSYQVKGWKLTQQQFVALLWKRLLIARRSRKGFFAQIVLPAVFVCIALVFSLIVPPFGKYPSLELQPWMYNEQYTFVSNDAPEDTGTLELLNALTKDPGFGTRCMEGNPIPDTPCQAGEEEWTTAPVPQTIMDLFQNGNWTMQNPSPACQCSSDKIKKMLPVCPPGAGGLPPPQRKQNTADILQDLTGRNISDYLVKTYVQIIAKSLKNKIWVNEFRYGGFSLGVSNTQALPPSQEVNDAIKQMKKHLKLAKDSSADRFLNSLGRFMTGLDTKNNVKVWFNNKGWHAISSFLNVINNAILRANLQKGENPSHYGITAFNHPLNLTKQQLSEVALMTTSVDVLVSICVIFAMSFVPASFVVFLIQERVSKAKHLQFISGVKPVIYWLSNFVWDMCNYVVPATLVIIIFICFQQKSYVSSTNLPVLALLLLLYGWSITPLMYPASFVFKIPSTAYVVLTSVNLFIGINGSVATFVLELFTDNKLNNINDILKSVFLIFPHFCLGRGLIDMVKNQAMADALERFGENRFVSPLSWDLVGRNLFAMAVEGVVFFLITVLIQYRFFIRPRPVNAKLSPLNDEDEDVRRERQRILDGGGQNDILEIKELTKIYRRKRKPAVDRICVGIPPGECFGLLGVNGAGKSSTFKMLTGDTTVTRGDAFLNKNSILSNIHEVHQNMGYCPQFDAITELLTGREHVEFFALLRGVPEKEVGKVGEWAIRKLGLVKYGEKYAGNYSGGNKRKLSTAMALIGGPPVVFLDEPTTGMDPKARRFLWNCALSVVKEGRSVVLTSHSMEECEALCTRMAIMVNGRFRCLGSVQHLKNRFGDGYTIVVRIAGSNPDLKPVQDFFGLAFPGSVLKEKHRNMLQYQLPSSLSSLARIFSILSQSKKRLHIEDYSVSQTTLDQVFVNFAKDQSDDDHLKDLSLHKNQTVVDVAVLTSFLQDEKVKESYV
Sequence of UniProt P80457 (whole entry, looked up): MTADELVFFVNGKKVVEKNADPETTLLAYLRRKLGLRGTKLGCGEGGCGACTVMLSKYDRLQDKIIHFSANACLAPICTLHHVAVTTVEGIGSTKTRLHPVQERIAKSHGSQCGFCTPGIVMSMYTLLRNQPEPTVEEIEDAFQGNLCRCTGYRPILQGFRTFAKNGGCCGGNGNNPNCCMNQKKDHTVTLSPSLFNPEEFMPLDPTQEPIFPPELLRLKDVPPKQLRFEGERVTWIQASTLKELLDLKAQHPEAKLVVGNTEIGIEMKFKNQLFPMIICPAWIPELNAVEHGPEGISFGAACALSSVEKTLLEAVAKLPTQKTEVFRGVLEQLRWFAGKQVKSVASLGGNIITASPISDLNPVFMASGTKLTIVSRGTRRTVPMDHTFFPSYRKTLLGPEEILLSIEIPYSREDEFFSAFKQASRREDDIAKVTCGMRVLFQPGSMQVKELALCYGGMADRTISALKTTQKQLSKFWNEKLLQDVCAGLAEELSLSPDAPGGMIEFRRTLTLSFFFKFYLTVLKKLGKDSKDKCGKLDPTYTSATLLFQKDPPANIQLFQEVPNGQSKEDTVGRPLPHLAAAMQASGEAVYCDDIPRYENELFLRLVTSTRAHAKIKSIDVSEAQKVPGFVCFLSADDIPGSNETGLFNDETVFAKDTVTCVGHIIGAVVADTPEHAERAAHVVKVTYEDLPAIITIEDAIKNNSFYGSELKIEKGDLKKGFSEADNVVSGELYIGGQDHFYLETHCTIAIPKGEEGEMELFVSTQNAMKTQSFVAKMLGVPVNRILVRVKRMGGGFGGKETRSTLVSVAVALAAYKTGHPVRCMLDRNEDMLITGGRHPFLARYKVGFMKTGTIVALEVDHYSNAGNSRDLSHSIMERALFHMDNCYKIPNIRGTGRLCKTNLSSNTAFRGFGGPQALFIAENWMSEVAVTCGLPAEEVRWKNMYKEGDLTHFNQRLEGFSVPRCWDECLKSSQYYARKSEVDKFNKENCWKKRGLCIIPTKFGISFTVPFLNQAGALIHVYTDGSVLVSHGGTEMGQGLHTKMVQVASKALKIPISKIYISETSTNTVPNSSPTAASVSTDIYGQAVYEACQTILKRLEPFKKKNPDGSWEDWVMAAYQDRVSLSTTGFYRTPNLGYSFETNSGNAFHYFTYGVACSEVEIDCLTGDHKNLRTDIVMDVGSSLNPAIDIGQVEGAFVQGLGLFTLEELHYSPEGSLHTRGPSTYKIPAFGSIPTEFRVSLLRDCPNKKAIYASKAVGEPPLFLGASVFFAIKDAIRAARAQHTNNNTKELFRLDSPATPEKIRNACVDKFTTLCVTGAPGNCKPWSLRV

CC(=O)[O-].O.O.O.O.[Ni+2].[O-]c1ccc(Br)cc1C=NCCN1CCOCC1
Gibbs free energy change (Albumin (ALB, Bos taurus, UniProt P02769); UV absorption titration): -5.79 kcal/mol

CC(C)(C)S(=O)(=O)Cc1nc(-c2ccc(C(F)(F)F)cc2)cs1
enzyme activity (Trypanothione synthetase (Trypanosoma brucei, UniProt Q586P2); inhibitor; concentration not given): inactive

Cc1nn(-c2ccc(S(=O)(=O)N[C@H](CO)CC(C)C)cc2)c2nn3nnnc3nc12
necrotic cells (PC-3; AO/EB staining; 2 µM, 24 h): 42 ± 2.83%

C[n+]1cn(C2OC(COP(=O)(O)OP(=O)([O-])C(Cl)(Cl)P(=O)(O)OP(=O)(O)OCC3OC(n4cnc5c(=O)[nH]c(N)nc54)C(O)C3O)C(O)C2O)c2nc(N)nc(O)c21 (stereo not drawn)
hydrolysis (DCPS (Homo sapiens, UniProt Q96C86); substrate, HPLC; 0.04 mM, 60 min, 37 °C): 0%

Cc1ccccc1-c1cc(N2CCN(C(=O)CCC(=O)O)CC2)ccc1N(C)C(=O)C(C)(C)c1cc(C(F)(F)F)cc(C(F)(F)F)c1
inhibition rate constant (TACR1 (Homo sapiens, UniProt P25103); antagonist, BRET; HEK293T; 10 µM, with: substance P, added 5 min before): 0.11 ± 0.01 min⁻¹

CN(CC(=O)c1ccc2[nH]c(=O)[nH]c2c1)Cc1ccco1
remaining activity (APOBEC3G (Homo sapiens, UniProt Q9HC16); deaminase activity, inhibitor, alkaline cleavage; purified, expressed in 293T; 700 µM): 37%

C=C1C(=O)O[C@@H]2[C@H]3C(CO)=CC(=O)C3=C(C)C[C@H](OC(=O)Cc3ccc(O)cc3)[C@@H]12
Vmax (MAL12 (Saccharomyces cerevisiae S288c, UniProt P53341); enzyme activity, inhibitor; 26.09 µM): 0.022 mM/min

O=C(NCC1CO1)Oc1ccc([N+](=O)[O-])cc1 (racemic)
specific activity (Epoxide hydrolase 1 (EPHX1, Homo sapiens, UniProt P07099); enzyme activity, substrate; 50 µM, pH 9.0, 37 °C, human enzyme): < 2 nmol/min/mg

CC(=O)N[C@H](C(=O)N[C@@H](CC(C)C)C(=O)N[C@@H](CC(=O)O)C(=O)N[C@@H](CO)C(=O)N[C@@H](Cc1ccccc1)C(=O)N[C@@H](CCCCN)C(=O)N[C@H](C(=O)N[C@@H](CO)C(=O)N[C@@H](Cc1ccccc1)C(=O)N[C@@H](CC(C)C)C(=O)N[C@@H](CO)C(=O)N[C@@H](C)C(=O)N[C@@H](CC(C)C)C(=O)N[C@@H](CCC(=O)O)C(=O)N[C@@H](CCC(=O)O)C(=O)N[C@@H](Cc1ccc(O)cc1)C(=O)N[C@H](C(=O)N[C@@H](CCCCN)C(=O)N[C@@H](CCCCN)C(=O)N[C@@H](CC(C)C)C(=O)N[C@@H](CC(N)=O)C(=O)N[C@H](C(=O)N[C@@H](CCC(N)=O)C(N)=O)[C@@H](C)O)[C@@H](C)O)C(C)C)C(C)C
cholesterol efflux (ABCA1 (Homo sapiens, UniProt O95477); BHK transfected with ABCA1; 18 h): no effect

CO[C@@H]1O[C@H](CO)[C@@H](O[C@H]2O[C@H](CO)[C@@H](OP(=O)(O)O)[C@H](OP(=O)(O)O)[C@H]2O)[C@H]1OP(=O)(O)O
delta pKd (Inositol 1,4,5-trisphosphate-gated calcium channel ITPR1, N-terminal region (Itpr1, Rattus norvegicus, UniProt P29994, del318-332/R504Q); [3H]IP3 competition binding; N-terminal fragment; Tris-EDTA medium, unit not given; baseline: R504Q minus wild type): 1.33 ± 0.24

O=C1c2sc(-c3ccc(N4CCC(CO)CC4)nc3F)nc2CCN1c1cccnc1
binding to tau tangles (autoradiography; human, AD entorhinal cortex tissue; 20 nM): no binding

[3H]C([3H])([3H])c1cnccc1CN1C[C@@H](c2cc(F)c(F)c(F)c2)CC1=O
total binding (SV2A (Homo sapiens, UniProt Q7L0J3); radioligand binding, autoradiography; human, post-mortem frontal lobe; 2 nM): 104 fmol/mg

NS(=O)(=O)Nc1ncnc(OCCOc2ncc(Br)cn2)c1-c1ccc(Br)cc1
Km (M6 formation; female Sprague-Dawley rat, liver microsomes; 450 mg/kg daily for 4 weeks): 2.1 ± 0.6 µM

O=C1c2sc(-c3ccc(N4CCC(F)C4)nc3F)nc2CCN1c1cccnc1 (stereo not drawn)
binding to tau tangles (autoradiography; human, AD entorhinal cortex tissue; 20 nM): no binding

Cc1c(C(=O)Nc2ccn(C)n2)ncn1Cc1cccc(C(F)(F)F)c1
pS129-positive proteinase K-resistant granules (immunohistochemistry, refers to: human αS aggregates; human WT αS transgenic mouse, cortex; dose not given; baseline: placebo): decreased

O=C(OC1Cc2c(O)cc(O)cc2OC1c1cc(O)c(O)c(O)c1)c1cc(O)c(O)c(O)c1 (single isomer, unassigned; (-))
number of binding sites (XDH (Bos taurus, UniProt P80457); fluorescence quenching; concentration not given, 25 °C): 1.03

Cc1cc(-c2ccc(NC(=O)[C@H](CCCCNC(=O)CCOCCOCCC(=O)N[C@H](Cc3ccccc3)C(=O)N[C@H]3CSSC[C@@H](C(=O)N[C@H](C(=O)O)[C@@H](C)O)NC(=O)[C@H]([C@@H](C)O)NC(=O)[C@H](CCCCN)NC(=O)[C@@H](Cc4c[nH]c5ccccc45)NC(=O)[C@H](Cc4ccc(O)cc4)NC3=O)NC(=O)CN3CCN(CC(=O)O)CCN(CC(=O)O)CCN(CC(=O)O)CC3)c(C)c2)ccc1N=Nc1ccc2c(S(=O)(=O)O)cc(S(=O)(=O)O)c(N)c2c1O [lutetium-177 labelled]
initial uptake (patients with metastatic NETs, lymph node metastases): 12 % injected activity

CCN(CC)C(=O)c1ccc(O)c(OC)c1
contrast (Heat shock protein HSP 90-alpha, N-terminal domain (HSP90AA1, Homo sapiens, UniProt P07900); binding, ligand-observed NMR titration; ligand to protein ratio 707): 23%

Some of these lines once more:
O=C1c2sc(-c3ccc(N4CCC(CO)CC4)nc3F)nc2CCN1c1cccnc1
binding to tau tangles (autoradiography; human, AD entorhinal cortex tissue; 20 nM): no binding

[3H]C([3H])([3H])c1cnccc1CN1C[C@@H](c2cc(F)c(F)c(F)c2)CC1=O
total binding (SV2A (Homo sapiens, UniProt Q7L0J3); radioligand binding, autoradiography; human, post-mortem frontal lobe; 2 nM): 104 fmol/mg
